Measured values from different studies.
Compare with care: the assays were run in different laboratories. “And” joins repeats or separate records; there may be more than shown. ± gives the spread as reported. Ends that are not written are not given here. The star is where a group is joined. * marks the point of attachment.
CDK5 with p25: Cyclin-dependent kinase 5, with p25 (CDK5, Homo sapiens, UniProt Q00535)
UniProt Q00535, sequence (whole entry, looked up): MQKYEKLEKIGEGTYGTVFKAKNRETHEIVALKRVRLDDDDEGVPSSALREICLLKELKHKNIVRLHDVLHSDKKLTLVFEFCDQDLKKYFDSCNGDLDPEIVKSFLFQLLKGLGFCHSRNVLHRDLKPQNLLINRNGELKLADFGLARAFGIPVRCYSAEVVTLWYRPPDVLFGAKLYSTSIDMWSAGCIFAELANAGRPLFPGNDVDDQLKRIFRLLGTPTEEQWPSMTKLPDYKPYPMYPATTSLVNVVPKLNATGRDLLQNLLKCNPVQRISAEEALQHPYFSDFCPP
HLA class I histocompatibility antigen, B alpha chain: HLA class I histocompatibility antigen, B alpha chain (Homo sapiens, UniProt P01889)
GABA-A receptor; alpha-1/beta-2/gamma-2: GABA-A receptor; alpha-1/beta-2/gamma-2 (Rattus norvegicus, UniProt P18508+P62813+P63138)
UniProt P18508, sequence (whole entry, looked up): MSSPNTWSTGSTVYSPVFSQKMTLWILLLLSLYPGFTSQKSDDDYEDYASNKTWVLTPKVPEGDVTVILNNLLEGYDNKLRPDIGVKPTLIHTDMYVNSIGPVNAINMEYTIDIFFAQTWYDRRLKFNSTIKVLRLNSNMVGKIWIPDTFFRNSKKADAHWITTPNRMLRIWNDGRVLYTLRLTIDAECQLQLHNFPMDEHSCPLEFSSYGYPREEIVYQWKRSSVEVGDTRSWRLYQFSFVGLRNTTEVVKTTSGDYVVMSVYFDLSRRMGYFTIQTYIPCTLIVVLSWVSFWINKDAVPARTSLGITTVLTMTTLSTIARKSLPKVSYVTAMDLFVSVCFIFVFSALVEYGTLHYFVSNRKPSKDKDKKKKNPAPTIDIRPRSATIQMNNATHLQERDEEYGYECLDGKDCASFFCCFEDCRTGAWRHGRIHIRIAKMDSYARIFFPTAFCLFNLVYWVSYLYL
UniProt P62813, sequence (whole entry, looked up): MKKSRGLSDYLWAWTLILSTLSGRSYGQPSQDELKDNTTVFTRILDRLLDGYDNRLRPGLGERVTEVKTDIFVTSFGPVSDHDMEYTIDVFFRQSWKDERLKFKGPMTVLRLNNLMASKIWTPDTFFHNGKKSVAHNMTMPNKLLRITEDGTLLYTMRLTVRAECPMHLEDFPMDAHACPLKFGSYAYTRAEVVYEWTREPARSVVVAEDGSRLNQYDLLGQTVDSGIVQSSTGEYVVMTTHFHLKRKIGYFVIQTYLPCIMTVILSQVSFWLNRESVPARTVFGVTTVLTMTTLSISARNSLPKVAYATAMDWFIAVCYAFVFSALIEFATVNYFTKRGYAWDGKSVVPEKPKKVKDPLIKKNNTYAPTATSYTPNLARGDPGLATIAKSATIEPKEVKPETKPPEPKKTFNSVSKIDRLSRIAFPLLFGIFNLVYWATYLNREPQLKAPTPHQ
UniProt P63138, sequence (whole entry, looked up): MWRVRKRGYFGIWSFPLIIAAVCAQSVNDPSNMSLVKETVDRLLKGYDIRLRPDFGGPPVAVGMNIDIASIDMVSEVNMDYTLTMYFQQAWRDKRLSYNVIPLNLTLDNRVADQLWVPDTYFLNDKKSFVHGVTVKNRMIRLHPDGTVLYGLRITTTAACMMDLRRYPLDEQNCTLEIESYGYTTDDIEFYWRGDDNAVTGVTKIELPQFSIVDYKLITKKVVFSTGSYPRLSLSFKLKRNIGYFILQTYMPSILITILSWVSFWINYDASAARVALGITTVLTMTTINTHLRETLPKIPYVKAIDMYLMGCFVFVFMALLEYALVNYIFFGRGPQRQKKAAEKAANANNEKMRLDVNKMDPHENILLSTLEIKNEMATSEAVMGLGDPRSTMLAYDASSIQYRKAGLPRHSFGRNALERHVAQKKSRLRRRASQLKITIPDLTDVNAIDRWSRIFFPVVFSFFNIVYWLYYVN
Genome polyprotein NS3 helicase domain: Genome polyprotein, NS3 helicase domain (Hepatitis C virus genotype 1b, UniProt Q9WMX2)
B1: chain MSEILPYGEDKMGRFGADPEGSDLSFSCRLQDTNSFFAGNQAKRPPKLGQIGRAKRVVIEDDRIDDVLKGMGEKPPSGV
UniProt Q64663, sequence (whole entry, unmodified, looked up): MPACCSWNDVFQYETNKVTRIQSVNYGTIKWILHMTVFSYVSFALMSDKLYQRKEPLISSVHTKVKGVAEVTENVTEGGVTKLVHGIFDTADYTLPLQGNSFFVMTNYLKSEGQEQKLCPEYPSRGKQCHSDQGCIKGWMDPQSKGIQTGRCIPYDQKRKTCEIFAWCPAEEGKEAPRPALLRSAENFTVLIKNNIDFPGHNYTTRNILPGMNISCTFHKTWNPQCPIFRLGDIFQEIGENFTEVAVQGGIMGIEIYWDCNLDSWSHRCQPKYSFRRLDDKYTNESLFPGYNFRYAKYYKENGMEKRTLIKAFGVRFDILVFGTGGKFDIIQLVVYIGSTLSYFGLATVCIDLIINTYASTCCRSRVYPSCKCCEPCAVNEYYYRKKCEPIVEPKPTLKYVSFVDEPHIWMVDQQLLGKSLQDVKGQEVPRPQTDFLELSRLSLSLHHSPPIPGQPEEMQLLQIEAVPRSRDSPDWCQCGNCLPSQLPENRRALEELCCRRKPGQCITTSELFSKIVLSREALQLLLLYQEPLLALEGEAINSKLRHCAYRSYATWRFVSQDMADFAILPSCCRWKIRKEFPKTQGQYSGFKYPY
UniProt Q9UQM7, sequence (whole entry, unmodified, looked up): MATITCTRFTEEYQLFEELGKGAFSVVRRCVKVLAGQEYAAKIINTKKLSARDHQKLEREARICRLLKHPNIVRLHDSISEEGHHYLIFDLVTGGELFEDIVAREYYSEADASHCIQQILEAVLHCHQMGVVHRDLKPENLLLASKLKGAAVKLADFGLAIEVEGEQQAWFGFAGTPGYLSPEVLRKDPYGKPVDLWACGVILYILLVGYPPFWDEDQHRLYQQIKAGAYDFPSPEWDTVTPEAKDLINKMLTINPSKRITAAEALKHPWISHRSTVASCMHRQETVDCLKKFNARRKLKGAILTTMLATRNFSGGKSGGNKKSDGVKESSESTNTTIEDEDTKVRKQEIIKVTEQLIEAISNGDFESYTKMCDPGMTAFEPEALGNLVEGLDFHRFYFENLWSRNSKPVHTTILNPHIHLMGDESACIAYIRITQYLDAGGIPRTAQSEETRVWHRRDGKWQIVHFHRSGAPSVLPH
UniProt P51878, sequence (whole entry, looked up): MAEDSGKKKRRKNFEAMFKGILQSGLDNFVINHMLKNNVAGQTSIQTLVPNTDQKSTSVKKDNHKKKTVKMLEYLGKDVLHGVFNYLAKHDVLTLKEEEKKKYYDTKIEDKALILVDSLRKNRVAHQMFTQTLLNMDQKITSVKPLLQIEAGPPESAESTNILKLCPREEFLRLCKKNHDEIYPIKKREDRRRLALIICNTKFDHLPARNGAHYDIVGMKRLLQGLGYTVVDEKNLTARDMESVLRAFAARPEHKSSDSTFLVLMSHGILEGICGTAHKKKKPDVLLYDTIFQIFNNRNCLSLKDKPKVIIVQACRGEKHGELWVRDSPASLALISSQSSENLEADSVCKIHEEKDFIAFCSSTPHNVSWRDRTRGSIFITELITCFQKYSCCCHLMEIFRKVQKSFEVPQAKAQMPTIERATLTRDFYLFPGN
UniProt Q5ANA3, sequence (whole entry, looked up): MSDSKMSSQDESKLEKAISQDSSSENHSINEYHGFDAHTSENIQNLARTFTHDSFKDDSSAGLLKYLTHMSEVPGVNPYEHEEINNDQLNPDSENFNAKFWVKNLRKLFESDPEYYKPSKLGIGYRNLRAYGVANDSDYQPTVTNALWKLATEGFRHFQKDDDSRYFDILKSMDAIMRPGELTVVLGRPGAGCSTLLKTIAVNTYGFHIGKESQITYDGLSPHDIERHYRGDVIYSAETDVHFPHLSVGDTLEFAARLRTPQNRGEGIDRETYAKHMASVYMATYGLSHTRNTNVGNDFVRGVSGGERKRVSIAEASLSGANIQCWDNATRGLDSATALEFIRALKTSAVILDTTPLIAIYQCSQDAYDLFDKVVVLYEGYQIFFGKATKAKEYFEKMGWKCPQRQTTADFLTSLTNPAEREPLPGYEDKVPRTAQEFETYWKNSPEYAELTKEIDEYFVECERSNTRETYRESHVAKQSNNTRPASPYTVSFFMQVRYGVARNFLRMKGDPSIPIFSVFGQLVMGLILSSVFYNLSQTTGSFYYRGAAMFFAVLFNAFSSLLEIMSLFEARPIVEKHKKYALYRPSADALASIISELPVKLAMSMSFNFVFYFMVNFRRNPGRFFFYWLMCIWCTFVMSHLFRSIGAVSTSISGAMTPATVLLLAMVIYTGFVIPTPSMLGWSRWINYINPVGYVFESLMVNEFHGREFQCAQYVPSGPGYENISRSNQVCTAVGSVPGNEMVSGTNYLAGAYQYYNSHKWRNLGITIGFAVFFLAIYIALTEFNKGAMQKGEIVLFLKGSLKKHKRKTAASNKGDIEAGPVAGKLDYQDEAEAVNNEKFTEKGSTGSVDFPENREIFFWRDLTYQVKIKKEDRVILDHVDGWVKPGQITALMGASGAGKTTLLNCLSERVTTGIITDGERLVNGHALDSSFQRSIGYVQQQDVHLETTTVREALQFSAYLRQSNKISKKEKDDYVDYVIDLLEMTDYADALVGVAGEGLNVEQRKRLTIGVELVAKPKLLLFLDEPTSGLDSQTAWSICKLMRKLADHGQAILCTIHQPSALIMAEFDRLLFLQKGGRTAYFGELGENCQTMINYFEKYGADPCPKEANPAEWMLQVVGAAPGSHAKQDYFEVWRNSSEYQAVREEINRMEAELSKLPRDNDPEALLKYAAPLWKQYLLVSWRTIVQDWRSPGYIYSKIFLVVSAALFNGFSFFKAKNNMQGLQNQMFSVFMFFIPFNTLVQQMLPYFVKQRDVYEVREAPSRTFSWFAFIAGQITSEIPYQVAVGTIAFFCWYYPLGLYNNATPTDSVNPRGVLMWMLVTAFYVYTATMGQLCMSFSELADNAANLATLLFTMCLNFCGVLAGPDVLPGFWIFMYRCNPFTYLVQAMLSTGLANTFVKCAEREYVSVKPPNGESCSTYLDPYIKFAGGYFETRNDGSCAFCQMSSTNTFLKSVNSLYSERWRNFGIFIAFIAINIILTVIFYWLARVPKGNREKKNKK
UniProt O35186, sequence (whole entry, looked up): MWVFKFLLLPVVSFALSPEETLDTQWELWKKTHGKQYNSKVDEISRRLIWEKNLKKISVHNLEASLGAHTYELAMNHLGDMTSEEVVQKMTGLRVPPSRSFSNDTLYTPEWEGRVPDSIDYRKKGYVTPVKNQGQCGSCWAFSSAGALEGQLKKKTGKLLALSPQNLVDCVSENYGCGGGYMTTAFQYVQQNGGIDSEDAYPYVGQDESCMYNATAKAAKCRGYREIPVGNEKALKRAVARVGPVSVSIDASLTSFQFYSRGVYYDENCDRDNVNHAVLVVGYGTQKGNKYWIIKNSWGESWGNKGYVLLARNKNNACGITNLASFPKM

Molecule	target or system	assay	test system	setting	how to read	measurement	value
KEAFWDRCLSIINLMSSKMLQINA	CDK5 with p25	phosphotransferase activity, radiometric	peptide	concentration not given, 10% DMSO, added: histone substrate	reference: p5-WT peptide	activity change	2%
IPQQHTQVM	HLA class I histocompatibility antigen, B alpha chain	iTopia initial binding	peptide	11 µM, 18 h, 21 °C, HLA-B7 allele	reference: allele positive control peptide	binding	60%
(+)-butaclamol	D(2) dopamine receptor (DRD2, Homo sapiens, UniProt P14416)	radioligand binding, antagonist		reference compound		Hill coefficient	1.1
milbemycin oxime	CDR1 (Candida albicans, UniProt Q5ANA3)	binding, microscale thermophoresis		611 pM		fraction bound	-4.29%
Cbz-WEHD-CH2F (Z-WEHD-FMK; Cbz = O=C(OCc1ccccc1)*; CH2F = FC*)	Caspase-5 (CASP5, Homo sapiens, UniProt P51878)	inhibitor, FRET		100 nM, 30 min preincubation, 25 nM enzyme		remaining activity	~8%
Ivermectin	GABA-A receptor; alpha-1/beta-2/gamma-2	agonist, QP-DHM	HEK293 cells	concentration not given	reference: GABA	response amplitude	58%
Malic enzyme 2 S121Q (human)		enzyme activity, activator, NADH absorbance	recombinant enzyme	range over 0 to 5 mM, pH 7.4	reference: wild type	activation fold	0.9
HDLFSRIDSSVVVVP	HLA-DR, human	DELFIA	peptide	10 µM, 48 h, 37 °C	reference: peptide alone	binding	1 fold
CIIS	Rattus norvegicus protein farnesyltransferase	peptide prenylation, substrate, SPOT peptide library	peptide	added: C15-Alk	reference: random library	relative spot intensity	100%
DMTSEEVVQKMTGLKVPLSHSRSND	Cathepsin K (Rattus norvegicus, UniProt O35186)	recombinant enzyme	peptide	concentration not given		optimal inhibitory concentration	500 nM
human ME2 F68V		enzyme activity, activator, NADH absorbance	recombinant enzyme	range over 0 to 5 mM, pH 7.4	reference: wild type	activation fold	1.1
11-deoxycorticosterone	CYP11B2 (human)	substrate binding, stopped-flow kinetic modelling		4-state branched induced-fit model, added: equimolar adrenodoxin		rate constant k-1	485 min⁻¹
Tannic acid	Protein disulfide-isomerase, a' domain (P4HB, Homo sapiens, UniProt P07237)	di-eosin-GSSG reductase activity, inhibitor		20 µM, isolated a' domain		inhibition	inhibited
FGA (Homo sapiens, UniProt P02671)	RASA2 (Homo sapiens, UniProt Q15283)	cross-linking MS		added: DSSO		cross-linked residues	K157 to K820
SRKHKWKLSGVERANSVTW	HLA-DR, human	DELFIA	peptide	10 µM, 48 h, 37 °C	reference: peptide alone	binding	> 2 fold
B1	Calcium/calmodulin-dependent protein kinase type II subunit alpha (CAMK2A, Homo sapiens, UniProt Q9UQM7, D135N/E236K)	binding, ITC	kinase domain D135N/E236K			ΔH	-6.96 kcal/mol and -7.22 kcal/mol
RQLRNWTSAEGLLRVHARL	HLA-DR, human	DELFIA	peptide	10 µM, 48 h, 37 °C	reference: peptide alone	binding	> 2 fold
BzATP	P2X purinoceptor 7 (P2rx7, Rattus norvegicus, UniProt Q64663, I214A)	ion current, agonist, two-electrode voltage clamp	Xenopus oocytes	11 µM		normalized current	0.784 and 0.877 and 0.837
SKF 89626	Genome polyprotein NS3 helicase domain	NS3 helicase DNA binding, fluorescence, Cy5-dT15		100 µM		inhibition	5%
KEAFWDRCLSVINLMSSKMLQLNA	CDK5 with p25	phosphotransferase activity, radiometric	peptide	concentration not given, 10% DMSO, added: histone substrate	reference: p5-WT peptide	activity change	29%

Molecule	target or system	assay	test system	setting	how to read	measurement	value
UCL 2077	Genome polyprotein NS3 helicase domain	NS3 helicase DNA binding, fluorescence, Cy5-dT15		100 µM		inhibition	0%
For-MNFA (N-formyl; For = O=C*)	Peptide deformylase, mitochondrial (Homo sapiens, UniProt Q9HBH1)	substrate, FDH/NAD+-coupled		pH 7.5		Km	2440 ± 739 µM
NLVAQLENEVASLENENETLKKKNLHKKDLIAYLEKEIANLRKKIEE	CREB/ATF bZIP transcription factor (CREBZF, Homo sapiens, UniProt Q9NS37)	heterodimer thermal denaturation, CD	peptide, 1 M GuHCl	4 µM total peptide, pH 7.4		Tm	43 °C
KQWLVWLFL	TCR	SPR	peptide	25 °C	reference: wild-type peptide	ΔΔG°	-1.8 kcal/mol
Boc-RVRR-{AMC} (N-Boc, C-AMC; Boc = CC(C)(C)OC(=O)*; AMC = Cc1cc(=O)oc2cc(N*)ccc12)	Furin (FURIN, Homo sapiens, UniProt P09958)	cleavage, substrate, HPLC		15 min, 37 °C		Vmax	0.00547 nmol/min/unit
KEAFWDRCLSVINLMSMKMLQINA	CDK5 with p25	phosphotransferase activity, radiometric	peptide	concentration not given, 10% DMSO, added: histone substrate	reference: p5-WT peptide	activity change	41%
β-melibiose	Frizzled-8 (Xenopus laevis, UniProt Q91719)	binding, biolayer interferometry		25 °C, added: immobilized biotinylated carbohydrate		dissociation rate constant	0.0115 s⁻¹
KEAFWDRCLSVINVMSSKMLQINA	CDK5 with p25	phosphotransferase activity, radiometric	peptide	concentration not given, 10% DMSO, added: histone substrate	reference: p5-WT peptide	activity change	20%
colistin	Pseudomonas aeruginosa		clinical isolate RKI 347/12			MIC	≤ 1 µg/mL
pregnenolone sulfate	TRPM3 (Homo sapiens, UniProt Q9HCF6)	whole-cell patch clamp	HEK-293T expressing hTRPM3-YFP	40 µM, at +80 mV, not DTT-treated, added: clotrimazole 10 µM		current density	9.89 ± 4.7 pA/pF
REGYEMVFDGKPQHTNVCF	HLA-DR, human	DELFIA	peptide	10 µM, 48 h, 37 °C	reference: peptide alone	binding	> 2 fold
KEAFWDRCLSVINLMMSKMLQINA	CDK5 with p25	phosphotransferase activity, radiometric	peptide	concentration not given, 10% DMSO, added: histone substrate	reference: p5-WT peptide	activity change	44%
RWGLLLALL	human HLA-A*2401 (HLA-A24)	iTopia initial binding	peptide	11 µM, 18 h, 21 °C	reference: allele positive control peptide	binding	103%
KEAFWDRCLSVINLMSSKMIQINA	CDK5 with p25	phosphotransferase activity, radiometric	peptide	concentration not given, 10% DMSO, added: histone substrate	reference: p5-WT peptide	activity change	62%
Teniposide related compound A	GABA-A receptor; alpha-1/beta-2/gamma-2	QP-DHM primary screen	HEK293 cells	10 µM	direction not given	agonist score	0.499
KEAFWDRCLSVINLMSSKMLQIDA	CDK5 with p25	phosphotransferase activity, radiometric	peptide	concentration not given, 10% DMSO, added: histone substrate	reference: p5-WT peptide	activity change	65%
maltotriose	uncharacterized protein (Pelagibacter ubique, UniProt Q4FMK2)	binding, DSF			higher = stronger binding	thermal shift	20.1 °C
alpinetin	Alpha-glucosidase MAL12 (MAL12, Saccharomyces cerevisiae S288c, UniProt P53341)	enzyme activity		concentration not given, added: p-NPG		inhibition	0%
SPSAPPHRWCL	HLA class I histocompatibility antigen, B alpha chain	iTopia initial binding	peptide	11 µM, 18 h, 21 °C, HLA-B7 allele	reference: allele positive control peptide	binding	75%
KEAFYDRCLSVINLMSSKMLQINA	CDK5 with p25	phosphotransferase activity, radiometric	peptide	concentration not given, 10% DMSO, added: histone substrate	reference: p5-WT peptide	activity change	-8%

Repeated from above:
Molecule	target or system	assay	test system	setting	how to read	measurement	value
Malic enzyme 2 S121Q (human)		enzyme activity, activator, NADH absorbance	recombinant enzyme	range over 0 to 5 mM, pH 7.4	reference: wild type	activation fold	0.9
(+)-butaclamol	D(2) dopamine receptor (DRD2, Homo sapiens, UniProt P14416)	radioligand binding, antagonist		reference compound		Hill coefficient	1.1
KEAFWDRCLSVINLMSSKMIQINA	CDK5 with p25	phosphotransferase activity, radiometric	peptide	concentration not given, 10% DMSO, added: histone substrate	reference: p5-WT peptide	activity change	62%
For-MNFA (N-formyl; For = O=C*)	Peptide deformylase, mitochondrial (Homo sapiens, UniProt Q9HBH1)	substrate, FDH/NAD+-coupled		pH 7.5		Km	2440 ± 739 µM
CIIS	Rattus norvegicus protein farnesyltransferase	peptide prenylation, substrate, SPOT peptide library	peptide	added: C15-Alk	reference: random library	relative spot intensity	100%
